# Published values pooled from the literature.
# Protocols differ between the studies behind these lines. Numbers after ± are the reported error.
# inhA: Enoyl-[acyl-carrier-protein] reductase [NADH] (inhA, Mycobacterium tuberculosis, UniProt P9WGR1)
SMILES,tested on,test,system,setting,scale,quantity,value
[Ca+2],Halyomorpha halys,"inward current, inhibitor, electrophysiology",,"concentration not given, D721A D731A in Nan",,inhibition,49.9%
NC(=S)NN=Cc1ccc(OC(=O)CN2C(=O)CSC2=O)cc1,Mycobacterium tuberculosis,Alamar blue,MDR 210,,,MIC,31.6 to 45.7 µM
CS(=O)(=O)Nc1ncn(-c2cc(F)c(COc3ccc(OS(=O)(=O)F)cc3)c(F)c2)n1,Mycobacterium tuberculosis,,,4 x MIC,,resistance mutation frequency,4.41e-08 mutants per cell
NC(=O)c1cccnc1,Nan-Iav channel Halyomorpha halys,ion current,HEK-293T,concentration not given,,current density,130 pA/pF
NC(=S)NN=Cc1ccc(OC(=O)CN2C(=O)CSC2=O)c(Br)c1,Mycobacterium tuberculosis,Alamar blue,MDR 210,,,MIC,72.3 to 167 µM
CCc1oc2ccccc2c1/C=C/C(=O)N(CCOC)Cc1nc2ccccc2c(=O)[nH]1,inhA,"enzyme activity, inhibitor",,pH 6.8,,IC50,14000 ± 5000 nM
CO[C@H]1/C=C/O[C@@]2(C)Oc3c(C)c(O)c4c(O)c(c(/C=N/N5CCN(C)CC5)c(O)c4c3C2=O)NC(=O)/C(C)=C\C=C\[C@H](C)[C@H](O)[C@@H](C)[C@@H](O)[C@@H](C)[C@H](OC(C)=O)[C@@H]1C,Mycobacterium tuberculosis,,,4 x MIC,,resistance mutation frequency,2.26e-06 mutants per cell
NNC(=O)c1ccncc1,Mycobacterium tuberculosis,,H37Rv inhA M103V mutant,concentration not given,reference: wild type H37Rv,MIC fold change,1 fold
NNC(=O)c1ccncc1,Mycobacterium tuberculosis,,,10 x MIC,,resistance mutation frequency,7.47e-06 mutants per cell
CCCCCCC#Cc1cncc(-c2nnc(SCc3ccc(Cl)cc3)n2C)c1,Mycobacterium tuberculosis,MABA,Erdman wild type,,,IC50,6030 nM
FC(F)(F)c1ccc(CCNc2cc(-c3ccccn3)nc3nncn23)cc1,Mycobacterium tuberculosis,bacterial growth,,,,IC90,1700 nM
Cc1cc2ncn(Cc3ccc(Cl)c(Cl)c3)c2cc1C,inhA,enzyme activity,,,,binding efficiency index,16
CCOc1cc(C=NNC(N)=S)ccc1OC(=O)CN1C(=O)CSC1=O,Mycobacterium tuberculosis,Alamar blue,MDR 210,,,MIC,72.3 to 167 µM
CCCCCCC#Cc1cncc(-c2nnc(SCc3ccc([N+](=O)[O-])o3)n2C2CC2)c1,Mycobacterium tuberculosis,MABA,Erdman wild type,,,IC50,40 nM
O=C1c2c(O)c(=O)ccn2N([C@@H]2c3ccccc3SCc3c2ccc(F)c3F)[C@@H]2COCCN12,Influenza A virus,"viral replication, plaque reduction",A(H1N1)pdm09 rg-A/California/04/2009,mean,,EC50,0.19 ± 0.02 nM
NCCCNCCCCN(CCCN)/[N+]([O-])=N/O,"Sensor histidine kinase PdtaS (pdtaS, Mycobacterium tuberculosis, UniProt P9WGL4, C53A)",,,,,dimerization affinity,no effect
CO[C@H]1/C=C/O[C@@]2(C)Oc3c(C)c(O)c4c(O)c(c(/C=N/N5CCN(C)CC5)c(O)c4c3C2=O)NC(=O)/C(C)=C\C=C\[C@H](C)[C@H](O)[C@@H](C)[C@@H](O)[C@@H](C)[C@H](OC(C)=O)[C@@H]1C,Mycobacterium tuberculosis,,H37Rv inhA M103I mutant,concentration not given,reference: wild type H37Rv,MIC fold change,1 fold
CCC(CC)[C@H](NC(C)=O)[C@@H]1[C@H](O)[C@@H](C(=O)O)C[C@H]1N=C(N)N,"neuraminidase (Influenza B virus, UniProt A0A1S5RAG6)",,,,,IC50,0.4 ± 0.04 nM
FC(F)(F)c1ccc(CCNc2cc(-c3cccs3)nc3nncn23)cc1,Mycobacterium tuberculosis,bacterial growth,,,,IC90,3000 nM
NNC(=O)c1ccncc1,Mycobacterium tuberculosis,,H37Rv,before serial passaging,,MIC90,0.24 µM
CC[C@@H](CO)NCCN[C@@H](CC)CO,Mycobacterium tuberculosis,,,4 x MIC,,resistance mutation frequency,3.38e-07 mutants per cell
CC(CNc1cc(-c2ccccn2)nc2nncn12)c1ccccc1 (stereo not shown),Mycobacterium tuberculosis,bacterial growth,,,,IC90,> 100000 nM

# Excerpt of the above:
SMILES,tested on,test,system,setting,scale,quantity,value
NCCCNCCCCN(CCCN)/[N+]([O-])=N/O,"Sensor histidine kinase PdtaS (pdtaS, Mycobacterium tuberculosis, UniProt P9WGL4, C53A)",,,,,dimerization affinity,no effect
Cc1cc2ncn(Cc3ccc(Cl)c(Cl)c3)c2cc1C,inhA,enzyme activity,,,,binding efficiency index,16
CC[C@@H](CO)NCCN[C@@H](CC)CO,Mycobacterium tuberculosis,,,4 x MIC,,resistance mutation frequency,3.38e-07 mutants per cell
